Results gathered from unrelated publications.
Numbered parts are unrelated; each lists some results of a single study. Positions count from the first letter of the parent shown.

Series 1
Target: RING finger protein unkempt homolog, zinc fingers 1-6, SBP tag (UNK, Homo sapiens, UniProt Q9C0B0, residues 30-357)
UniProt Q9C0B0, sequence (30-357, looked up): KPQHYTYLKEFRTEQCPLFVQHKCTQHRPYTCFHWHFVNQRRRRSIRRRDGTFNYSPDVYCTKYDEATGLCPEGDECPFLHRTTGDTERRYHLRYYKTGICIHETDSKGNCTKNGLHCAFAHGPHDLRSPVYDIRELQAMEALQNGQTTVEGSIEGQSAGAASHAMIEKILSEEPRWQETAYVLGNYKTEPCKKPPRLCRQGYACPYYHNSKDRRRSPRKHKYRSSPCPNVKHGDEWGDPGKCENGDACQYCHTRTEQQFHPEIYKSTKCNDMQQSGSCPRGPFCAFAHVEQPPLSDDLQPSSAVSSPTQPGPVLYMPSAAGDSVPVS
Method: RNA Bind-n-Seq
Form: RNA
Medium: in vitro
Tested at: 100 nM
Setting: RNA with constant flanks, vertebrate orthologous sites, ends assumed
Reference: input RNA pool
Reading: higher = stronger binding
`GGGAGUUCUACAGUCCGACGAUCUAUAAGAACUCUUGCAGUCUCAGAUGUUAUAAAAAUAUAUAUCUGAAUUGUAAGAGUUGUUAGCACAAGUUCUUUUUUUUUUUUUUUUUAAGCACUUGUUUUGGGUACAAGGCAUUUCUGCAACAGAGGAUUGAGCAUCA` gave a bound/input enrichment of 0.322 ratio.
The bound/input enrichment of `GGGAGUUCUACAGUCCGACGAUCUCUCUCGCUUAACUGUGUCCAAAGUUGCUAUGAGGAUUGGAAACAUUCAUUAGUUUCAUGUAGAACUACACUGGCAGGUGCUCAAUUCCCAUCAUAGCAAGAUCAAAAACCAUCACAGUGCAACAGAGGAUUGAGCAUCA` is reported as 0.917 ratio.
With `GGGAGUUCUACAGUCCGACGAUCAAAAUUCAAUAGAAUUACACUAAUACUGAAGUUCCAGUUGAAAGGAUAUCCAAGUGUGUGUUGGUAGUUACUAAAAGAAUUAUAGCUGUUAUUGCCUUGUAUUUAUAUCCCUUGUUUCAGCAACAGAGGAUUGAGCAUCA` the bound/input enrichment was 0.816 ratio.
`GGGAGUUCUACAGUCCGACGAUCUCAACUCAGGUUUUAUUUAUUUUGAGAUUAUCAAUUGUAUAAGUCUAAUUUAUUGACAAACAUGAUGGGAUUUAAAUUUUUUUAUUGUUGAAACCUUAACAGGCAAUUCAUAUUCCCAGCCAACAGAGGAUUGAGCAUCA` has a bound/input enrichment of 0.294 ratio.
`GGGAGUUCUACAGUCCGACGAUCUCCUCAACUUGUUCUAGCUUGUGAUCCUUCAAAGUUGGGUCAUACGUUAGUGCUAGAUACUAGAAAUUGUCACUUUUCCACUGAUCAGAGAGACAGACAUUAAAAACAAAAAUAGAAGAACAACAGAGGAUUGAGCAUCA` has a bound/input enrichment of 1.43 ratio.
`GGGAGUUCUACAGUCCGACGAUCGGAGGUUUGCUUCCUCCAACUUCAGUUUUUCAGGUUGUAGCUGGUUUUUUUCUUCUCCGCCCCCCACCGCAGUUCUUUCACUUUCGUUUCUGUUUCCCCAACUUCAAAUACACAAAUCCUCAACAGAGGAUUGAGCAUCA` has a bound/input enrichment of 0.809 ratio.
`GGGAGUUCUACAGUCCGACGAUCGGGACGCUUUGACAUAAAGCUCACCGUGUCGUGACCUGAGCUACAGGGAGCACUCAAUUUGAAAACGAAUACAACUUAGAGAAAACAGUUCAGAUAAAAACCACCACUAGUCUUUGAACACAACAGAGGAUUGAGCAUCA` gave a bound/input enrichment of 0.321 ratio.
The bound/input enrichment of `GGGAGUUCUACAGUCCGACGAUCCAGUUUGUAUGUACAUUAUUCACAUUCCUCUCUGAUGUGUUUGGGGGAAAAAAGACAUUUUAGCCUUUUUUAAGGUUAUUGAUUUAAUUUCAUGUUAUUUGGUUGCAUGAAGUUGCCCUUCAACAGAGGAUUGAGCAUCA` is reported as 0.45 ratio.

Series 2
Target: Histone acetyltransferase KAT6A, both winged helices, GST fusion (KAT6A, Homo sapiens, UniProt Q92794, residues 1-181)
Method: protein binding microarray
Form: double-stranded DNA, one strand shown
Medium: in vitro
Tested at: not given
Setting: 8-mer, flanks averaged, mean of 2 arrays, mostly near background
Reference: not given
Reading: higher = stronger binding
Residues (chain): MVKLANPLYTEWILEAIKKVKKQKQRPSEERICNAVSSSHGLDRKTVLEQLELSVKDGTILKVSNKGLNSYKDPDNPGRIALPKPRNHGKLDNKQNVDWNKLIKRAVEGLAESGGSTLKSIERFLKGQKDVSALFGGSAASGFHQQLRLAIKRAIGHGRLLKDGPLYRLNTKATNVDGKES
The E-score of `AAGCATTA` is reported as -0.227.
`CTTAAGGA` gave an E-score of -0.186.
`ATACAGAT` has an E-score of -0.101.
The E-score of `ATGTGGGC` is reported as -0.0335.
The E-score of `GCGGAAGA` is reported as 0.142.
With `ATAAATGC` the E-score was -0.0674.
The E-score of `CGCCAGCC` is reported as 0.138.
`CTGAGAAG` has an E-score of -0.174.
The E-score of `ATGACGCG` is reported as 0.322.
With `ATCGCACC` the E-score was 0.0585.
`CCACTGTC` gave an E-score of -0.228.

Series 3
Target: CCNA1, cyclin fold, Cln2 fusion (human)
Method: yeast growth competition, sequencing
Medium: yeast
Setting: weak parent motif
Reference: not given
Reading: higher = stronger binding
Starting sequence: SCAPER docking peptide (human); SNARRSLNFGGST; partner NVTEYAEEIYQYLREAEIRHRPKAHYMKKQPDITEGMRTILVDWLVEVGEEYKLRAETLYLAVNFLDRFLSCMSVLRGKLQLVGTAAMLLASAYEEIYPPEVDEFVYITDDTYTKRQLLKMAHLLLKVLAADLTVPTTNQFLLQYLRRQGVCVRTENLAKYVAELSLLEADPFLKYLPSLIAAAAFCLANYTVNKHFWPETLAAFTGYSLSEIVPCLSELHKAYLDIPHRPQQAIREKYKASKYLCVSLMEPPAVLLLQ
Under “normalised enrichment score”, `S12P` is recorded as 0.756.
`L7T` — result for “normalised enrichment score”: 0.385.
Under “normalised enrichment score”, `A3K` is recorded as 0.231.
Under “normalised enrichment score”, `N2L` is recorded as 0.505.
`T13V` — result for “normalised enrichment score”: 0.808.
Under “normalised enrichment score”, `R5H` is recorded as 0.202.
For `A3E`, “normalised enrichment score” read 0.526.
Under “normalised enrichment score”, `S12W` is recorded as 0.357.
For `G10M`, “normalised enrichment score” read 0.472.

Single results of other studies
`PhoQ, residues 284 288 289 292 302 303 AGHLVA` has a fold induction of 2.35 (PhoP, residues 12 14 15 18 19 NHTVL (Escherichia coli, UniProt P23836); Sort-seq, refers to: YFP reporter; E. coli; PhoQ-PhoP variant library, together with: 10 µM Mg2+; reference: high Mg2+ state, higher = stronger signaling).

A few entries again (series 3):
`L7T` — result for “normalised enrichment score”: 0.385.
`T13V` — result for “normalised enrichment score”: 0.808.
Under “normalised enrichment score”, `R5H` is recorded as 0.202.
Under “normalised enrichment score”, `N2L` is recorded as 0.505.
For `A3E`, “normalised enrichment score” read 0.526.
